Published values from different studies.
Protocols differ between the studies behind these lines. Values joined by “and” are separate records of one study, mostly repeats; a detail may differ. Numbers after ± are the reported error.

| Structure (SMILES) | tested on | assay | system | setting | endpoint | value |
| --- | --- | --- | --- | --- | --- | --- |
| CCCCN(CCCC)CCCNC(=O)c1ccc2nc(N3CCCCC3)sc2c1 | SARS-CoV-2 | cytopathic effect | USA_WA1/2020 | round 2, 5-point | maximum response | 42.5% |
| CC[C@H](C)[C@H](NC(=O)[C@H](CC(C)C)NC(=O)[C@H](Cc1c[nH]c2ccccc12)NC(=O)[C@H](CCC(N)=O)NC(=O)[C@@H](NC(=O)[C@H](Cc1ccccc1)NC(=O)[C@H](C)NC(=O)[C@H](CCCCNC(=O)COCCOCCNC(=O)COCCOCCNC(=O)CC[C@H](NC(=O)CCCCCCCCCCCCCCCCCCC(=O)O)C(=O)O)NC(=O)[C@H](CCC(N)=O)NC(=O)[C@H](C)NC(=O)[C@@H](NC(=O)[C@H](CCCCN)NC(=O)[C@H](CC(=O)O)NC(=O)[C@H](CC(C)C)NC(=O)C(C)(C)NC(=O)[C@@H](NC(=O)[C@H](CO)NC(=O)[C@H](Cc1ccc(O)cc1)NC(=O)[C@H](CC(=O)O)NC(=O)[C@H](CO)NC(=O)[C@@H](NC(=O)[C@H](Cc1ccccc1)NC(=O)[C@@H](NC(=O)CNC(=O)[C@H](CCC(=O)O)NC(=O)C(C)(C)NC(=O)[C@@H](N)Cc1ccc(O)cc1)[C@@H](C)O)[C@@H](C)O)[C@@H](C)CC)[C@@H](C)CC)C(C)C)C(=O)N[C@@H](C)C(=O)NCC(=O)NCC(=O)N1CCC[C@H]1C(=O)N[C@@H](CO)C(=O)N[C@@H](CO)C(=O)NCC(=O)N[C@@H](C)C(=O)N1CCC[C@H]1C(=O)N1CCC[C@H]1C(=O)N1CCC[C@H]1C(=O)N[C@@H](CO)C(N)=O |  | item: treatment-emergent feeling hot | healthy subjects | 4.5 mg, multiple ascending dose | subjects with adverse event | 16.7% |
| CNc1nc(N)ncc1-c1cn([C@@H]2O[C@H](CO)[C@@H](O)[C@@]2(C)F)cn1 | Zaire ebolavirus |  |  | concentration not given | antiviral activity | inactive |
| CNCCOC(c1ccccc1)c1ccccc1 | Zaire ebolavirus | viral entry |  | HIV pseudovirions with EBOV glycoprotein | IC50 | 12.2 ± 0.5 µM |
| CNC(=O)[C@@H](NC(=O)[C@H](CC(C)C)[C@H](O)C(=O)NO)C(C)(C)C | snake venom metalloproteinase | proteolytic activity, inhibitor | Daboia russelii, venom MH | together with: azocasein | IC50 | 0.147 µM and 0.169 µM |
| COc1ccc2nc3cc(Cl)ccc3c(Nc3cc(CN4CCCC4)c(O)c(CN4CCCC4)c3)c2n1 | Zaire ebolavirus | viral replication | HeLa | 24 h | EC50 | 1.14 µM |
| O=C(N1CCC2(CC1)C[C@@H](CN1CCCCS1(=O)=O)CCO2)C1(c2ccccc2)CCCC1 | Zaire ebolavirus | viral replication | Vero |  | EC50 | > 30 µM |
| COc1cc2c(OC3CCNCC3)c3c(c(-c4ccc5c(c4)OCO5)c2cc1OC)C(=O)OC3 | Zaire ebolavirus | viral replication | HeLa |  | EC90 | 0.051 µM |
| CN1CCN(C(c2ccccc2)c2ccc(Cl)cc2)CC1 (centres unmarked) | Zaire ebolavirus |  | HeLa, Kikwit | 48 h | IC50 | 5.7 µM |
| CN(C)C1CCN(C(=O)c2cc3ccccc3n2Cc2ccc(F)cc2)CC1 | Zaire ebolavirus | viral replication | HeLa, Mayinga, wild type |  | EC50 | > 20 µM |
| Cn1cnc(Cn2c(=O)[nH]/c(=N\c3cc4cn(C)nc4cc3Cl)n(Cc3cc(F)c(F)cc3F)c2=O)n1 |  |  | human, mild renal impairment | oral, 375 mg, decreased GFR TEAE, moderate severity | patients with adverse event | 0% |
| CCOC(=O)C1=C[C@@H](OC(CC)CC)[C@H](NC(C)=O)[C@@H](N)C1 | Zaire ebolavirus | viral replication | HeLa | 24 h | EC50 | > 25 µM |
| COc1c(C)c2c(c(O)c1C/C=C(\C)CCC(=O)O)C(=O)OC2 | Zaire ebolavirus | minigenome RNA synthesis | HEK293T | 10 µM | inhibition | ~90% |
| CN(C)C1CCN(C(=O)c2cc3ccccc3n2Cc2ccncc2)CC1 | Zaire ebolavirus | pseudovirus entry | A549 |  | EC50 | 16.2 ± 2 µM |
| COc1ccccc1-c1cccc(CN2CCCC(C(=O)NCc3ccc(F)cc3)C2)c1 (centres unmarked) | SARS-CoV-2 | cytopathic effect, cell-based CPE | USA_WA1/2020 |  | AC50 | 14.1 µM |
| COc1cc2c(OC3CCOC3)c3c(c(-c4ccc5c(c4)OCO5)c2cc1OC)C(=O)OC3 (centres unmarked) | Zaire ebolavirus | viral replication | HeLa |  | EC90 | 0.1 µM |
| Nc1ncnc2c([C@@H]3N[C@H](CO)[C@@H](O)[C@H]3O)c[nH]c12 | Zaire ebolavirus | viral replication | HeLa, Kikwit | 12.5 µM | inhibition | 46.8% |
